Experimental data pooled from the literature.
Each numbered part is a random draw from the data of one study; scales do not carry over between parts. Changes are numbered by the printed parent chain.

Sample 1
Target: Phosphate system positive regulatory protein PHO4, full length, GST-tagged (PHO4, Saccharomyces cerevisiae, UniProt P07270, residues 1-312)
Technique: competition protein-binding microarray
Molecule type: double-stranded DNA, one strand shown
Sample: in vitro
Concentration: 2 µM
Setting: whole 60-bp probe, lowest competitor level
Together with: Cbf1 competitor, 0.05 µM
Reading: higher = stronger binding
Target sequence (chain): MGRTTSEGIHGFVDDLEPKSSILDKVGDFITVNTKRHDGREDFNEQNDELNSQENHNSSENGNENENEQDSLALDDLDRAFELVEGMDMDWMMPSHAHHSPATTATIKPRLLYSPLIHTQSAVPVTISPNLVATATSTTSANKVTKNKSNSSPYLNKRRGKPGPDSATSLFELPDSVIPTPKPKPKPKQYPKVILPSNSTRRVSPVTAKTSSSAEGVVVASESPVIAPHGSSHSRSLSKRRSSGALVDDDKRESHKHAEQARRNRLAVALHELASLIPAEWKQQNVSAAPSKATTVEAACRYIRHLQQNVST
Sequence | fluorescence intensity [a.u.]
CTAACGAAGGTTTGGTTAGTGGGTGACAAGCCAAGTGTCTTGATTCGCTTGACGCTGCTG | 3750
CTTTCCCGATCTTGTCACTAAACTTTAGCACATTTGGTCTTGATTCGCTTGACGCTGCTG | 4100
GTAAAACTTTATTAGCTCGTGCTTTCGCGGCTCAGAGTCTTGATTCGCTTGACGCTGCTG | 10700
ATAGGTGCCATCACAATCGTGCCGAAATCTACCACTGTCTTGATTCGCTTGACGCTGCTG | 7790
CGGGGTTAAGTTTGATTGGTGGGTGGCTTGCAGCAGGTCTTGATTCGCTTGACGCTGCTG | 4700
CCCTTTCCAACGCCCTACGTGCCAGGCCTCGACCGGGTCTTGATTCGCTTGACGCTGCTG | 7410
CCTTTAAAGGCCCACCACGTGGCTGCGCGGCCAGCCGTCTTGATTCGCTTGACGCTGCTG | 15900
ACCTTTCAGTTTCCGCGCGTGACTCGGATTTGGCGGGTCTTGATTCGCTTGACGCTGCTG | 9650
AAGAGTGGCTACAAACATGTGAGTTGACCCAAGAATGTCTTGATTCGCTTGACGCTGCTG | 7300
GACGTACGCGCCTTCCACGTGTAACTCTTGTCTCTCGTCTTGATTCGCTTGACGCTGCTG | 15000
TGGTCAGACGCAGCGGGCGTGCTTTTGGACTGCTTGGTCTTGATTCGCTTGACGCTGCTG | 6620
GTCTTGTCTCATTGGGACGTGGGTGTCCCCACTTCAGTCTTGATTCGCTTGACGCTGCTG | 6450
ATAGGTTCAAACTTCGGCGTGCTAAAAGTATATACCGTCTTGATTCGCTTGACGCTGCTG | 7510
GCTATTGGCGCATTCAATGTGTCGCAAATGGGCCCAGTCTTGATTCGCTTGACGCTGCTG | 4170
CTTCTGTAAATTTGCTTTGTGGGTGGACGCGCCCCGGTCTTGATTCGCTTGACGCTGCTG | 3820
GTCTTGTCTCATTGCCCGGTGGGTGTCCCCACTTCAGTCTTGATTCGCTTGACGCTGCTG | 5180
AACAGTGGTTCCTGTTCCGTGACGGGTGCTACAACTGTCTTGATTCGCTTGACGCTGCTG | 3700
ATGAAGACGGAATCGCACGGGCCTATTACCTCGGGGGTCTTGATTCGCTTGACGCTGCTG | 8090

Sample 2
Target: Interferon regulatory factor 5, full length, phosphomimetic (IRF5, Homo sapiens, UniProt Q13568-2, residues 1-514, K96S/S451D/S453D/S456D/S462D)
Technique: protein-binding microarray
Molecule type: double-stranded DNA, one strand shown
Sample: in vitro
Concentration: 250 nM
Setting: 60-bp whole probe
Together with: salmon DNA 0.4 mg/ml
Reference: random background probes
Reading: higher = stronger binding
All sequences stand within: GCCTAGCAC … GTCTTGATTCGCTTGACGCTGCTG
Sequence | log fluorescence [z-score]
AATTAGGTTTCACTTTCCAAAGTGCTA | 6.99
GACGGTTTCGGGGCTGGGGACGTGCTA | 3.97
TCAACTTTCAGTTCTCCACTGTGCTAG | 5.88
TCATCATTCCTGATCTCACTGTGCTAG | 0.0186
TCATTTTTTTCTTTAAAACTGTGCTAG | 1.31
GACTGTATCGGACTGGGGACGTGCTAG | 0.929
TCATTTCCCACTTTCACACTGTGCTAG | 3.21
TTAGGTTTCCCTATCCTTTAGTGCTAG | 1.21
TCAATTTTCTAAATTCCACTGTGCTAG | 0.705
TTAGGTCTCGGTTTCGGCTAGTGCTAG | 5.31
TTAGGACAGGGTTTCGGTTAGTGCTAG | 7.07
TTAGGTCTTGGACTGGGTTAGTGCTAG | -0.38
GACGATATGGGGACTGGAGACGTGCTA | -0.108
GACGAACGGAGTTTCGAGACGTGCTAG | 3.72
TTAGGTCTCGGTTTCGGTTCGTGCTAG | 7.9
GACGGACTGGAATATCGGGACGTGCTA | 0.251
TTAGGTTTCCTTCTCCATTAGTGCTAG | 0.99
TTAGATATCAGTTTCGAGTAGTGCTAG | 7.69

Sample 3
Target: CCND2, cyclin fold, Cln2 fusion (human)
Technique: yeast growth competition, sequencing
Sample: yeast
Setting: weak parent motif
Reference: not given
Reading: higher = stronger binding
Starting sequence: ASZ1 docking peptide (human); GFGFLLFICKLTF; partner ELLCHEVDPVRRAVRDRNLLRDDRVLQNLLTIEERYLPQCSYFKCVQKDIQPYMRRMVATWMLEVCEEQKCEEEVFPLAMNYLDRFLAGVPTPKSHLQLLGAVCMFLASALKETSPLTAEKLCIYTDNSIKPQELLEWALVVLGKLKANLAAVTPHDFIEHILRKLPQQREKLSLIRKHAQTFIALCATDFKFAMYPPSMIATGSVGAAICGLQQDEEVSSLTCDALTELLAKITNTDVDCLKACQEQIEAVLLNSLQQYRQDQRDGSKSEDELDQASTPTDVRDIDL
Substitution | normalised enrichment score
F4A | -0.252
G3A | -0.0339
F7A | -0.737
C9A | -0.178
F13A | -0.0262
F2A | -0.445
L11A | -0.444

Sample 4
Target: PABPC1L2, full length, GST fusion (mouse, UniProt A0ABA7IW68)
Technique: RNAcompete
Molecule type: RNA
Sample: in vitro
Concentration: 20 nM
Setting: 7-mer, probes averaged, single round
Reference: mean of 7-mers
Reading: higher = stronger binding
Construct (chain): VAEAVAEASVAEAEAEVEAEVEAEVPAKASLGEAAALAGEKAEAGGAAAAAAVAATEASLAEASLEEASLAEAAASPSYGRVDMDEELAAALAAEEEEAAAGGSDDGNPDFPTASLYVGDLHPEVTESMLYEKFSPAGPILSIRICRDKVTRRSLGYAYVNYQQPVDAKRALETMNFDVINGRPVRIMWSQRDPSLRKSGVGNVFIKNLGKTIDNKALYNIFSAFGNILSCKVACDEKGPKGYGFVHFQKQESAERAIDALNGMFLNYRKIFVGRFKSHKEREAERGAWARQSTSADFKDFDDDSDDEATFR
Sequence | 7-mer Z-score
CUCUAUG | -0.244
UUGGAAA | 0.798
UCAUCAU | -0.307
CAGGCAU | 0.111
GACAAGC | -0.0174
ACGCCGU | -0.315
CCUCCGU | -0.371
CCCAGCU | -0.168
AGCUCGG | -0.17
ACCACAA | 0.171
AAUACUU | 0.144
UUGCAGA | -0.0881
UAGUUUC | -0.396
AUCGGCG | -0.0264
GCAUGCU | -0.0844
UGAGCCC | -0.373
CGCUAUG | -0.349
AAGCAUA | 0.155
AUGCGCC | -0.224
CCAGCGC | -0.262
CAGUAUG | 0.0551
AUGCGCU | -0.0917
GCAGCAG | 0.131

Sample 5
Target: Sal-like protein 4, full length isoform A (SALL4, Homo sapiens, UniProt Q9UJQ4, residues 1-1053)
Sequence of UniProt Q9UJQ4 (whole entry, looked up): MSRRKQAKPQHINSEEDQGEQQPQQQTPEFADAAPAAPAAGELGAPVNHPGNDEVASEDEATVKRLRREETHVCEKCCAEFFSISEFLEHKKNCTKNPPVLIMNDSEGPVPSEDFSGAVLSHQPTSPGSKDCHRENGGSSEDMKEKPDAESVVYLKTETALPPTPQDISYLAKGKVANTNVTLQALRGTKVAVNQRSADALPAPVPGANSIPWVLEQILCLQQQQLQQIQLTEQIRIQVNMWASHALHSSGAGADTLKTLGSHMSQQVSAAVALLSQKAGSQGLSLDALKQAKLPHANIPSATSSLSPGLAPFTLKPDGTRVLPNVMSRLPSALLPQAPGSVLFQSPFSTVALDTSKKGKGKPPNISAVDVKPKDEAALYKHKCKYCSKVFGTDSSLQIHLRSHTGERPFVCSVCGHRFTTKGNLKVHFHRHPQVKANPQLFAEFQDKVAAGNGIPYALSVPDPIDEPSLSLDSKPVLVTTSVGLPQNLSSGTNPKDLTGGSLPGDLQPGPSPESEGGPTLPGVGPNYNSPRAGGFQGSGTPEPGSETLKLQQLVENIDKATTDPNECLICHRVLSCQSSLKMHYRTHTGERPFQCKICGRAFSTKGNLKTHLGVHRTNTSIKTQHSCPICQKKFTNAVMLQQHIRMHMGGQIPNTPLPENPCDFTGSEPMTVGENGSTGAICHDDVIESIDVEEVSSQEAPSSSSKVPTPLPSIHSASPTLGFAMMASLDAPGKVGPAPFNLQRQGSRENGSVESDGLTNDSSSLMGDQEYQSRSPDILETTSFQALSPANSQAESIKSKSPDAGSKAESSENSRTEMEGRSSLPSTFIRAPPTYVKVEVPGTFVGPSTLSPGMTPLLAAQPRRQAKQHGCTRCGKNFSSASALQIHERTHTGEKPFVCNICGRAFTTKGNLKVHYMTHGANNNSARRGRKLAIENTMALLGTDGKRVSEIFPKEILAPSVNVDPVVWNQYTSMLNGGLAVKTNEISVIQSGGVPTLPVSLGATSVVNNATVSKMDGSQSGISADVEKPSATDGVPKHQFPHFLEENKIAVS
Technique: universal PBM
Molecule type: double-stranded DNA, one strand shown
Sample: in vitro
Concentration: 600 nM
Setting: 8-mer, flanks averaged, mean of replicates
Reading: higher = stronger binding
Sequence | E-score
CAACAGCG | -0.25
AAATGGCA | 0.138
ATACAGAC | 0.14
CATCGAAG | 0.17
AGTGTCAC | -0.067
CTTTCCAC | 0.013
AACGTTGG | -0.0216
GACATTGA | 0.0379
ACCCGATG | -0.198
AGCCGACG | -0.226
CAATATGG | 0.187
AGTCTAGG | 0.0333
ACAAAGCA | 0.208
CAGCTAGG | -0.193
AGTGCCAA | -0.0294
GAGTAGAC | -0.131
AGGGACTC | -0.209
ATTCAACG | 0.172
CGTCAAAC | -0.0202
AGCTATAC | 0.104
TCCCGAGA | -0.236
GTAAGACA | -0.00288
CATGTTAA | 0.253

Single results of other studies
Substance | target | assay | system | setting | scale | measurement | result
PhoQ, residues 284 288 289 292 302 303 SLANKL | PhoP, residues 12 14 15 18 19 STWGI (Escherichia coli, UniProt P23836) | Sort-seq, item: YFP reporter | E. coli | PhoQ-PhoP variant library, together with: 10 µM Mg2+ | reference: high Mg2+ state, higher = stronger signaling | fold induction | 7.15

Excerpt of the above (sample 1):
Sequence | fluorescence intensity [a.u.]
GACGTACGCGCCTTCCACGTGTAACTCTTGTCTCTCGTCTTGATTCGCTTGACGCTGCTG | 15000
ATGAAGACGGAATCGCACGGGCCTATTACCTCGGGGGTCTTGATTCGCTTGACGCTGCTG | 8090
CCTTTAAAGGCCCACCACGTGGCTGCGCGGCCAGCCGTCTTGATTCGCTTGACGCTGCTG | 15900
AACAGTGGTTCCTGTTCCGTGACGGGTGCTACAACTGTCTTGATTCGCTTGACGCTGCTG | 3700
GTCTTGTCTCATTGCCCGGTGGGTGTCCCCACTTCAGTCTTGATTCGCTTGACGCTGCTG | 5180
ACCTTTCAGTTTCCGCGCGTGACTCGGATTTGGCGGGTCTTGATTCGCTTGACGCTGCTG | 9650
GTAAAACTTTATTAGCTCGTGCTTTCGCGGCTCAGAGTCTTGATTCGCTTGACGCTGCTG | 10700
CTAACGAAGGTTTGGTTAGTGGGTGACAAGCCAAGTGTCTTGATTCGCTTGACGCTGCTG | 3750
CCCTTTCCAACGCCCTACGTGCCAGGCCTCGACCGGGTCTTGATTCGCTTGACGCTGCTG | 7410
CTTTCCCGATCTTGTCACTAAACTTTAGCACATTTGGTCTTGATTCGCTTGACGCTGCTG | 4100
CGGGGTTAAGTTTGATTGGTGGGTGGCTTGCAGCAGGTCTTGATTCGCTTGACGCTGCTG | 4700
CTTCTGTAAATTTGCTTTGTGGGTGGACGCGCCCCGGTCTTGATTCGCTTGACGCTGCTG | 3820
